# Results gathered from unrelated publications.
# Each numbered part is a random draw from the data of one study; scales do not carry over between parts. Positions count from the first letter of the parent shown.

# Set 1
# Target: CCNE2, cyclin fold, Cln2 fusion (human)
# Method: yeast growth competition, sequencing
# Sample: yeast
# Notes: strong parent motif
# Relative to: not given
# Direction: higher = stronger binding
# Starting sequence: INSM1 docking peptide (human); PKAIRKLHFEDEV
Substitution,normalised enrichment score
PKAIRKTHFEDEV [L7T],0.202
PKSIRKLHFEDEV [A3S],0.327
PKAISKLHFEDEV [R5S],0.148
PKAIRKLHFEDNV [E12N],1.97
PKAIRKLHFEPEV [D11P],1.46
PKAIRKLHFEQEV [D11Q],1.56
PKAIRKLHFQDEV [E10Q],0.98
PKATRKLHFEDEV [I4T],0.488
PKAIRKLHFEVEV [D11V],1.33
PKAIRHLHFEDEV [K6H],0.729
PKAIRKLHMEDEV [F9M],0.357
PKAIRKLHHEDEV [F9H],0.392
PKAIRKLHFSDEV [E10S],1.55
PKANRKLHFEDEV [I4N],0.879
PKAIRKEHFEDEV [L7E],-0.0543
PKAIRKLWFEDEV [H8W],1.26
PFAIRKLHFEDEV [K2F],1.02

# Set 2
# Target: RING finger protein unkempt homolog, zinc fingers 1-6, SBP tag (UNK, Homo sapiens, UniProt Q9C0B0, residues 30-357)
# Sequence of UniProt Q9C0B0 (30-357, looked up): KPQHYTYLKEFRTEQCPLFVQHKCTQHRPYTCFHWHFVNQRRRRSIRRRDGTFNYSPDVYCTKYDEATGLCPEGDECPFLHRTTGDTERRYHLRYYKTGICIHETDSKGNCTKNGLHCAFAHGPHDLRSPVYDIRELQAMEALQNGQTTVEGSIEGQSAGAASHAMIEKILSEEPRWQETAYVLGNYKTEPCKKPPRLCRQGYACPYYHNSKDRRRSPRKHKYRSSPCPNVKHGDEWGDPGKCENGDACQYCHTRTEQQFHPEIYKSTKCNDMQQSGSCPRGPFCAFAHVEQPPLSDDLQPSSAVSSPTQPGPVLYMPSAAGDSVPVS
# Method: RNA Bind-n-Seq
# Form: RNA
# Sample: in vitro
# Concentration: 100 nM
# Notes: RNA with constant flanks, vertebrate orthologous sites, ends assumed
# Relative to: input RNA pool
# Direction: higher = stronger binding
# Shared flanks, not repeated: GGGAGUUCUACAGUCCGACGAUC … CAACAGAGGAUUGAGCAUCA
Strand,bound/input enrichment [ratio]
UUUUAAUCGAUCAGGUCUGUAAAUGUGUACUAAGAAAAUCAAGUUUAUUUAUAAACAGAAGAGUUUAUUUAAAGAGAAGGUCAUUCUUCAUUGAUAUGGUGACAGACAUGGAUUCCAUGU,0.487
UUACAGUCAUUGAUGGACUCUAUUUUUUUAUUAUUACUUGGACCUUGGUCGUUUUUAUACUAGCAAAAUGUCUUGUUUUAAUUUGUGUUUUUUUUGGCGGGGAGGGAGUGAACUUGCUGA,3.27
UUUGUGGGGAUCGGGGGGUGGGAAGAAGAUGUAUGGAUGUUAUUGGCAUUUUUAAAUGUUCAGAGGUUUUUGUUUUGUUUUGUUUUGUUUCUUCUGUUUUGUUUUUUCUUCCCUUUAAUU,0.701
AAGGAGCAGCACAGGCUAUUGAGCUUUGGGGAAAUGAGCUUUUUGCUUUUUGUAUUUAAAUAGGAUCCUUUUAUACGACGGGUGCUUUUGGUGGGAAUGCACCAGGCUCUGCGCUUCAGA,0.846
GGGUGACUUUGGGCGCCCGCAAAAACAUCGUGCAGAGUCCUAGCUCCUGGGUCUGCCAAAUUUGUCUUGUCUUUCCGGACCCGAGGCCAAAGCCGCAAACAUGCUGCGCCAGAUCCUCGG,0.133
GGCAGCCGGUGGGGGUUGUCCCCUGCCCUGGCCUUGCCUCCCCUCCCUGCCACCUGCCCCUUAUUAUUUUUUUUUUAAACCACCAUGUGAUUAAGGUCAGCGCUGCCUCUCCUGACCCAC,2.86
AAAGUCCUGGCUGCCGGAACGCCUCAGUGAGGUAAAGUCUCUUGGCGUUUUGACUGGGACCAGCCCAGCCAUUCUCAGCCUCUCGACAUGUAAUUUCAUUUCUUUUACGAAAGCUCGUCU,0.124
GGUCCCCUGGGCUGGGACAGACAUUUUUUUAAGCGUCUUGAAACCUAAACUCUGUGCUUGUAGAAGACUGUAACCUUUUUGUUUGUUUUUUGUUUUUAAAACAACCUGCACCUCCAGUGG,0.407
AGUAUCCCAGUUGUACCGUGUUGGGUUGGCAUUGUACAGAAAUUAACAGCCAUAUUGGUCUAGAUACGUUAAACAUAAUUUUUUUCCAUUUGUACAGGGGUAACACACUGUAUUAAAUAU,1.23
AAAUCGAAACAAUAGAGCUCUGCAGAGUUCCUUUAAAACUGGAAAAUUCUAGCUGCAAAAUAGAAGAACUGUAUCAUGAAGCAAAGUUCUCAUACACUGCAGAAACAAAAGACAAUACAG,0.23
CUUCUCACGCUCUUACAUGAGUGGAUUAUUAUUUUCUUUCUUUUUUUUUAUGUUUUGUAUAGAAAACAAAUUCAUUUAAACAAACUUAUUAUUAUUAUUAUUUUUUACAAAAUAUAUAUA,2.66

# Set 3
# Target: Histone acetyltransferase KAT6A, both winged helices, GST fusion (KAT6A, Homo sapiens, UniProt Q92794, residues 1-181)
# Method: protein binding microarray
# Form: double-stranded DNA, one strand shown
# Sample: in vitro
# Concentration: not given
# Notes: 8-mer, flanks averaged, mean of 2 arrays, mostly near background
# Relative to: not given
# Direction: higher = stronger binding
# Construct (chain): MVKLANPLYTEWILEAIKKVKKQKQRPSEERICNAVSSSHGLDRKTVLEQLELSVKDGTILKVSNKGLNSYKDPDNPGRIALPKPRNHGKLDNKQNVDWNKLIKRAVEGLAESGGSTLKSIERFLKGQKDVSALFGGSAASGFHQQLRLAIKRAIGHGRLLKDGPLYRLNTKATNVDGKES
Strand,E-score
GCCCTGTA,0.00784
GTCGATTA,-0.0687
GCCCTGGA,-0.108
CCAAACAA,-0.0864
GAGTCCAC,-0.0365
ACCAGTCG,0.0486
CTTGCCTA,-0.276
ATCCTTAG,-0.146
CCTCCTAG,-0.148
ATTACTCG,0.0285
GCAACCGC,0.195
AGACAACG,0.00294
CCGATAAA,0.0257
CAGGACAG,-0.118
AACATCTT,-0.0666
TAACTCTA,-0.258
CATTAAAG,-0.146
GACCTGGC,-0.157
CACCAGGA,-0.143
TACAGTCA,-0.0985

# Set 4
# Target: RNA binding protein fox-1 homolog 2, RRM domain, GST-SBP tag (RBFOX2, Homo sapiens, UniProt O43251-10, residues 100-194)
# Method: RNA Bind-n-Seq
# Form: RNA
# Sample: in vitro
# Concentration: 365 nM
# Notes: natural RNA segment, single round, ends assumed
# Relative to: no-protein control
# Direction: higher = stronger binding
# Shared flanks, not repeated: GGGAGUUCUACAGUCCGACGAUC … UGGAAUUCUCGGGUGCCAA
# Construct (chain): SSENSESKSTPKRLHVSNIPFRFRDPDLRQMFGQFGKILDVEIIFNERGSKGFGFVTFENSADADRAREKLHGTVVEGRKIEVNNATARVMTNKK
Strand,RBNS enrichment (R)
UUGACUAUGAAUGUUAUCGGAUUACUGAAUUGUAUCAAUUUGUUUGUGUUCAAUAUCAGCUUUGAUAAUUGUGUACCUUAAGAUAUUGAAGGAGAAAAUAGAUAAUUUAC,4.14
GUUAUCUUCAGAAAAUAUUAUUUGACCUACAGUAUGUCCAAAUCAAUUUAAUAAAAUCGCUUUAUAACAGGGUUCUGUGCUUGACAUGUAGUUGUGUGAAUUCAGUGGUC,5.58
UCCUAGGAACUUUUAAGACUUCUUGGUACCUAUGAACAUAGGUCCUCCCCUCACCCCAACUCUAGGUUUCCAGGCCUCACAGCCAAGCUGAAGCUUGGAGAAAACUCUGC,0.653
AUUCUUGACUUCUGUGCACCUGCAGGCUUAACAGCACAUAGAAGCUGCCAAGGCUUGGGGCUUCCACUCUGAAGCCACAGCCCGAGCUGUAUGUUGGCCCCUUUCAGCCA,0.383
CACUGCAUUUUGGUUUCACAAUUCUUCAUCUCCCUUCCCAAGGAAUGGGCAAUCUACUGAACUUCCAGAUCAAUGCUUUGUUGGAAAGUGAUGAAUUUAAGAGAGUUUUA,5.86
UACUAGCCUCAAGUGUGCUAUUCCCAUGUGGCUUUAUCCUGUCCGUGUUGUUGAGAGGAUGAUGUUGUAAGGGUACCUUAAAACAAGAGACUCGCUUGUAUUUUAAGAGA,0.254
UGGCUCAGGCACCCUGGUUUUAAUUCCUUGAGGAUCUGGCAAUUGGCUUACGCAAAAGGUCACCAUUUGAGGUCCUGCCUUACUAAUUAUGUGCUGCCCAACAACUAAAU,0.394
UUCUUUUGAAUGUUUUGAACCCAACUACUUGUCAUAGAUGUUUGACUGUGUCAAAAGCUGUGAGCAGCAAAAUAUAAUCCAUAUGACCUUUUCUCUUGCACUUCACUUGU,1.77
UAAGCAGCGAUGGGUUCAGUGUUGUGUGUGGUGAAUACUGUAUUUUGUUUCAGUUCUGUCUCCCAGAUAAUGUGAAAACGGUCCAGGAGAAGGCAGCUUCCUAUAUGCAG,1.48
CUUUGACCUCUCCCACUCUCCAAAUGUAAUCUGGACCUCAUUGCUUUCAAGGUCAGCUUCCCCAUAGCUCAGGUAUCCUUUGCUCUCCUGUAUCUUCAUUUACUAUUAGU,0.927
CAAGUGCCCAUGUGUGUAUGGGAAGAGGUGGCUAAAGCCACUAGACUAGGGUGCUCACCCCUCAAGAUUGAUUCCCUGUCUUUCCCUCUGGGGCACCGCACUUUGUAAAG,0.306
AGAGGGCUGGAGGGAUGAUUAGCUCGAAAAUCUAGACCUGUCCAAGGGGCUUCUCCCUUUCCUUGAGCUCUCUGGACACUGCAGAGGACCCAUGGCCAUGGAACCCUGAA,0.582

# Set 5
# Target: ABI1, truncated, D143A, DHFR fusion (Arabidopsis thaliana)
# Method: DHFR PCA, deep sequencing
# Sample: yeast
# Notes: methotrexate growth selection, single substitutions
# Added: (+)-ABA 4.8 µM
# Relative to: wild-type fitted maximum
# Direction: higher = stronger binding
# Starting sequence: PYL1, truncated, DHFR fusion (Arabidopsis thaliana); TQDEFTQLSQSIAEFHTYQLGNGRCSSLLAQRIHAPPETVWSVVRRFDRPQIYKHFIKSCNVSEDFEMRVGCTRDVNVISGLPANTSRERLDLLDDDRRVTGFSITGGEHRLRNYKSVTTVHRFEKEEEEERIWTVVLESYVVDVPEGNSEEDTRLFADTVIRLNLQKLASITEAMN; partner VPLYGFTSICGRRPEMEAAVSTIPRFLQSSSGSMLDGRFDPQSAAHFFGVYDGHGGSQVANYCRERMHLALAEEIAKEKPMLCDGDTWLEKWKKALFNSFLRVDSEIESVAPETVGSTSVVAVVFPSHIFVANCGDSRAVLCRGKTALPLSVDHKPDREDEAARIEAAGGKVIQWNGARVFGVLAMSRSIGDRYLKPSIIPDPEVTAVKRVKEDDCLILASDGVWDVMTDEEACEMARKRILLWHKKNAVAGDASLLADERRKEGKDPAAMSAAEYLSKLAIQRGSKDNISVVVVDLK
Substitution,relative binding score [%]
N77S,82
I12K,6.09
E125H,80.8
S171F,63.2
G23T,38.4
R88T,73.3
T73V,80.8
R24E,62.6
V100G,-11.5
I57S,4.56
I79M,51
N165D,10.4
L93S,21.6
S59M,24.3
F157K,-2.45
V118S,1.09
D97L,48.6

# Some of these lines once more (set 1):
Substitution,normalised enrichment score
PKAIRKLWFEDEV [H8W],1.26
PKAIRKLHFEDNV [E12N],1.97
PKAIRHLHFEDEV [K6H],0.729
PKAIRKLHFSDEV [E10S],1.55
PKAIRKLHFEVEV [D11V],1.33
PKAIRKLHMEDEV [F9M],0.357
PKAIRKTHFEDEV [L7T],0.202
PFAIRKLHFEDEV [K2F],1.02
